Measured values collected from several papers.

Under “peak amplitude change”, C[C@H](Oc1ccc(Br)cc1-c1ccon1)C(=O)O is recorded as 13.4% (muscle velocity recovery cycles; human, tibialis anterior muscle; 600 mg once daily, multiple doses, 30 Hz train for 30 s; relative to: placebo).
N#CCC1CCN(c2nc(Nc3ccc(N4CCC(O)CC4)cc3)c3c(=O)[nH]ncc3n2)CC1: “fold change from baseline” -1.35 (Olink multiplex, refers to: CD163; human, serum; 80 mg, day 15; relative to: baseline).
NC(=O)c1cnc2[nH]ccc2c1N[C@@H]1[C@@H]2CC3C[C@H]1C[C@@](O)(C3)C2 has a percent change of 0.2% (CD4+ effector memory T cells, flow cytometry; Japanese humans, peripheral blood; 60 mg single dose; relative to: baseline).
For O=C(O)CNC(=O)Cc1ccccc1, the sarcomere length was 1.64 µm (ventricular cardiomyocytes, C57BL/6 mouse; dose not given, 0.24 s).
N#Cc1ccn2c(-c3ccncc3)c(-c3ccc(F)cc3)nc2c1: “log2 fold change” 0.048 (kinase binding, competitor, MIB/MS competition, refers to: CTK1; Candida albicans cell lysate; 100 nM; relative to: DMSO).
The sarcomere length of CC(C)NCC(O)c1ccc(O)c(O)c1 (stereo not drawn) is reported as 1.72 µm (ventricular cardiomyocytes, C57BL/6 mouse; dose not given, 0.732 s).
Cc1n[nH]c2ccc(-c3cc(OC[C@@H](N)Cc4ccccc4)cnc3-c3ccoc3)cc12: “log2 fold change” -0.517 (kinase binding, competitor, MIB/MS competition, refers to: HRK1; Candida albicans cell lysate; 10 µM; relative to: DMSO).
OC(CCN1CCCCC1)(c1ccccc1)C1CC2C=CC1C2 (stereo not drawn) — result for “power, EEG, Alpha, O2-Pz”: 7.6 µV² (resting-state EEG; healthy elderly humans; oral, 4 mg, eyes open, LS mean).
With C[C@@H](NC(=O)N1C(=O)[C@H](Cc2ccnc(N)c2)[C@H]1C(=O)O)C1CCCCC1 the aPTT Emax was 56.3 s (human; iv infusion, 1.0 mg/kg/h, 24 h).
